Measurements from different studies.
Compare with care: the assays were run in different laboratories. Values joined by “and” are separate records of one study, mostly repeats; a detail may differ.
Target: Serine/threonine-protein kinase D1 (PRKD1, Homo sapiens, UniProt Q15139)

| Structure (SMILES) | assay | conditions | scale | measurement | result |
| --- | --- | --- | --- | --- | --- |
| COc1c(OCCCN2CCOCC2)ccc2c1N=C(NC(=O)c1cnc(N)nc1)N1CCN=C21 | kinase activity, inhibitor | 1 µM | baseline: untreated control | remaining activity | 117% |
| Cc1cccc(O[C@H]2CCC[C@@H](C(C)CNCc3ccncc3)C2)c1 (relative stereo) | enzyme activity, inhibitor | 1 µM | – | inhibition | 9% |
| Cc1cccc(-c2ccc3nc(NC(=O)C4CCCO4)nn3c2)c1 (stereo not drawn) | enzyme activity, Dundee kinase panel | 10 µM | – | remaining activity | 92% |
| COc1cc(Nc2nccc(-c3cnn4nc(OC)ccc34)n2)cc(C(F)(F)F)c1 | binding, competition with immobilised ligand | 1 µM | – | remaining binding | 100% |
| COCC12C(=O)NC3C4(C(OC)CC1O)C1CC5(O)C(OC)C(O)C(OC(C)=O)(C1C5OC(=O)c1ccccc1)C3(O)C(OC)C24 (stereo not drawn) | kinase activity, inhibitor, ProQinase kinase profiling | 25 µM | baseline: control | remaining activity | 85% and 109% |
| CCn1cc(C(=O)O)c(=O)c2c(N)c(F)c(NC3CCCCC3)cc21 | kinase activity | 0.1 µM, added: ATP at Km | – | inhibition | 18.4% |
| CNC1C[S+]2CC[S+]3CC[S+](C1)[Ru-4]321([N]=C=S)[n]2c3ccc(OC)cc3c3c4c(c5cc(F)c[n+]1c5c32)C(=O)NC4=O (stereo not drawn) | KinomeScan | 0.1 µM | baseline: untreated | remaining binding | 100% |
| NC(=O)[C@@H](O)C[C@H]1CCc2sc3ncnc(O[C@H]4CC[C@H](N5CCOCC5)CC4)c3c21 | enzyme activity, inhibitor | 10 µM | – | inhibition | 7% |
| COc1c(Cl)cccc1Nc1c(-c2ccncc2C#C[C@@]2(C)CCCN2C(=O)/C=C/CN(C)C)[nH]c2c1C(=O)NCC2 | binding, competition with immobilised ligand | 3 µM | – | remaining binding | 77% |
| C=CC(=O)N1CCc2ccc(-n3c(=O)ccc4cnc5ccc(-c6cnn(C)c6)cc5c43)cc21 | KINOMEscan | 1 µM | baseline: DMSO control | remaining binding | 100% |
| CNC(=O)C1CCN(c2cc(C)c(F)cc2NC(=O)c2ccc(-c3cc(O)ccc3C)c(C)c2)CC1 | binding, competition with immobilised ligand | 1 µM | – | remaining binding | 92% |
| C=CC(=O)N1CCCC(n2c(=O)c3ncccc3n(Cc3ccc(Oc4ccccc4)cc3)c2=O)C1 (stereo not drawn) | cell-free assay, competition with immobilised ligand | 1 µM | – | remaining binding | 69% |
| CN1CCN(Cc2ccc(-c3ccc(CO[C@H]4CCC[C@@H]4NC(=O)c4cc(-c5cnn(C)c5)cnc4N)cc3)cc2)CC1 | enzyme activity, inhibitor | 0.1 µM | – | inhibition | 6% |
| C=CC(=O)Nc1cccc(-c2cnc3[nH]cc(C(=O)NC(C)(C)C)c3n2)c1 | kinase activity | 0.1 µM | – | inhibition | -1% and 3% |
| CC(C)=CC1OC(C)(C)C2C=C3C(=O)C(Cl)=CC(O)C3C3C(O)C4OC4C(=O)C132 (stereo not drawn) | cell-free assay, competition with immobilised ligand | 10 µM | – | remaining binding | 100% |
| Cc1ccc(C)c(-c2ccc3nc(NC(=O)C4CCCCC4)nn3c2)c1 | enzyme activity, Dundee kinase panel | 10 µM | – | remaining activity | 80% |
| CCN1CCN(Cc2ccc(C(=O)Nc3ccc(C)c(NCc4cnc5[nH]ccc5c4OC)c3)cc2C(F)(F)F)CC1 | binding, competition with immobilised ligand | 1 µM | – | remaining binding | 100% |
| c1ccc2c(Nc3cc(C4CCC4)[nH]n3)nc(Nc3ccc4nc[nH]c4c3)nc2c1 | enzyme activity, inhibitor | 0.25 µM | – | remaining activity | 3% |

Repeated from above:
| Structure (SMILES) | assay | conditions | scale | measurement | result |
| --- | --- | --- | --- | --- | --- |
| CN1CCN(Cc2ccc(-c3ccc(CO[C@H]4CCC[C@@H]4NC(=O)c4cc(-c5cnn(C)c5)cnc4N)cc3)cc2)CC1 | enzyme activity, inhibitor | 0.1 µM | – | inhibition | 6% |
| C=CC(=O)Nc1cccc(-c2cnc3[nH]cc(C(=O)NC(C)(C)C)c3n2)c1 | kinase activity | 0.1 µM | – | inhibition | -1% and 3% |
